Results pooled from the literature.
Parts stem from different laboratories: compare values within a part only. “And” joins repeats or separate records; there may be more than shown.

Study 1
Organism: Sarcocystis neurona
Observed: parasite growth
Concentration: 10 µM
Notes: secondary screen
| SMILES | inhibition [%] |
| --- | --- |
| COc1cc(C)c(Cc2cnc(N)nc2N)cc1OC | 45.3 |
| Oc1c(Cl)cc(Cl)c(Cl)c1Cc1c(O)c(Cl)cc(Cl)c1Cl | 70.3 |
| CCOC(=O)C1=C(C)NC(C)=C(C(=O)OC)C1c1cccc([N+](=O)[O-])c1 (stereo not shown) | -36.6 |

Study 2
Cell line: mouse MPNST tumor cells
Method: high-content nuclear imaging
Item: cell number
Concentration: 10 µM
Time: 12 h
Notes: mean of 2 replicates
Baseline: plate mean
Direction: higher = more cells
| Structure (SMILES) | nuclei count |
| --- | --- |
| CCN1CCN(c2cc3c(cc2F)c(=O)c(C(=O)O)cn3C2CC2)CC1 | -0.532 z-score and 0.265 z-score |
| Cc1nc2n(c(=O)c1CCN1CCC(c3noc4cc(F)ccc34)CC1)CCCC2 | 2.52 z-score and 1.31 z-score |
| O=C(N1CCC(C(c2ccc3c(c2)OCO3)c2ccc3c(c2)OCO3)CC1)n1cncn1 | 2.41 z-score |

Study 3
Target: D(1A) dopamine receptor (DRD1, Homo sapiens, UniProt P21728)
Chain of UniProt P21728 (whole entry, looked up): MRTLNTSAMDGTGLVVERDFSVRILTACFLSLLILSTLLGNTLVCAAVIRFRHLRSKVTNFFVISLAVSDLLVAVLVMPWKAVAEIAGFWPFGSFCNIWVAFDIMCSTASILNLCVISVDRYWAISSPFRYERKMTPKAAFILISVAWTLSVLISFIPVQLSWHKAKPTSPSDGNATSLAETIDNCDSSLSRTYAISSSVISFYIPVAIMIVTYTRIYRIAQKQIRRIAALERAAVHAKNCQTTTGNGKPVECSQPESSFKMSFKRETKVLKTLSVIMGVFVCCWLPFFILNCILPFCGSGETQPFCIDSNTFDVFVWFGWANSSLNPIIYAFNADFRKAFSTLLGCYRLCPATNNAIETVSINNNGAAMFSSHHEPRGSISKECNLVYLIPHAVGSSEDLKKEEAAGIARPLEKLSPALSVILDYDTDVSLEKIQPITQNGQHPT
Observed: binding
Method: radioligand binding
| Compound | Ki |
| --- | --- |
| O=C(c1ccc(F)cc1)N1CC(COc2ccc(Br)cc2)(C(=O)O)C1 | > 10 µM |
| O=C(NCc1ncc(C(F)(F)F)cc1Cl)c1ccc2c(c1)C1(CCS(=O)(=O)CC1)[C@@H](C1CC1)N2S(=O)(=O)c1ccc(F)cc1 | > 10 µM |
| CNC(=O)c1ccc(Nc2ncc(C(F)(F)F)c(NCc3nccnc3N(C)S(C)(=O)=O)n2)cc1 | > 10 µM |

Other studies, line by line
| Structure (SMILES) | cell line | concentration | time | endpoint | result |
| --- | --- | --- | --- | --- | --- |
| C[C@@H](O[C@H]1OCCN(Cc2nc(O)n(P(=O)(O)O)n2)[C@H]1c1ccc(F)cc1)c1cc(C(F)(F)F)cc(C(F)(F)F)c1 | A-375 | 100 µM | 36 h | viability | 0.196% |

Excerpt of the above (study 2):
| Structure (SMILES) | nuclei count |
| --- | --- |
| Cc1nc2n(c(=O)c1CCN1CCC(c3noc4cc(F)ccc34)CC1)CCCC2 | 2.52 z-score and 1.31 z-score |
| O=C(N1CCC(C(c2ccc3c(c2)OCO3)c2ccc3c(c2)OCO3)CC1)n1cncn1 | 2.41 z-score |
